Assay results pooled from the literature.
Technique: steady-state kinetics
B1: enzyme (Aquifex aeolicus, UniProt O67572); chain MLRSSLLPFSYLYEKIINFRNTLYDKGFLKIKKLPVPVISVGNLSVGGSGKTSFVMYLADLLKDKRVCILSRGYKRKSKGTLIVSEYGNLKVSWEEAGDEPYLMAKLLPHVSVVASEDRYKGGLLALEKLSPEVFILDDGFQHRKLHRDLNILLLKKKDLKDRLLPAGNLREPLKEIRRADALVLTYQEVEPFEFFTGKPTFKMFREFCCLLNSDFEEVPFDILKEREVIAFSGLGDNGQFRKVLKNLGIKVKEFMSFPDHYDYSDFTPEEGEIYLTTPKDLIKLQGYENVFALNFKVKLEREEKLKKLIYRIFY
Chain of UniProt F8G0P2 (whole entry, unmodified, looked up): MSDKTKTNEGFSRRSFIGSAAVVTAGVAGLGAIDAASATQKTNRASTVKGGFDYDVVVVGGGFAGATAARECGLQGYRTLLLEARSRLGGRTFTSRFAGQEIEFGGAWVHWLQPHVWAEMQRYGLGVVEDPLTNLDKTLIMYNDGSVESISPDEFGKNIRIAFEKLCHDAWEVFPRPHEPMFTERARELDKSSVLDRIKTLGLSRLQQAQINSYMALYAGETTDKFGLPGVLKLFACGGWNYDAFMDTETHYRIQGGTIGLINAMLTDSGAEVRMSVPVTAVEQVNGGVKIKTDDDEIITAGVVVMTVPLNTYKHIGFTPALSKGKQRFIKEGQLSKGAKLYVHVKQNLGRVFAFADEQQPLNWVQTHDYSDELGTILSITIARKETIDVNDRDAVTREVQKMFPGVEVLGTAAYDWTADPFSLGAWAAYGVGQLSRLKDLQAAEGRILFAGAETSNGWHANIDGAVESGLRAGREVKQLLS

nicA2 T250V/T381V (Pseudomonas putida)
Km (CN1CCC[C@H]1c1cccnc1; pH 7.4, 22 °C): 2.52 µM

Cj1438c (Campylobacter jejuni, UniProt Q0P8H6)
Km (Nc1ncnc2c1ncn2[C@@H]1O[C@H](COP(=O)(O)OP(=O)(O)OP(=O)(O)O)[C@@H](O)[C@H]1O; pH 8, 25 °C, apparent): 47 µM

hdhb E18D/G39D/R40L/R41N/T17A (Clostridium sardiniense)
Km (NC(=O)c1ccc[n+]([C@@H]2O[C@H](COP(=O)(O)OP(=O)(O)OC[C@H]3O[C@@H](n4cnc5c(N)ncnc54)[C@H](O)[C@@H]3O)[C@@H](O)[C@H]2O)c1; pH 8, 25 °C, cofactor varied): 330 µM

orn (Vibrio cholerae, UniProt Q9KV17)
Km (Nc1nc2c(ncn2[C@@H]2O[C@H](COP(=O)(O)O[C@H]3[C@@H](O)[C@H](n4cnc5c(=O)[nH]c(N)nc54)O[C@@H]3COP(=O)(O)O)[C@@H](O)[C@H]2O)c(=O)[nH]1; pH 8, 37 °C): 41.2 µM

nicA2 (Pseudomonas putida, UniProt F8G0P2)
Km (CN1CCC[C@H]1c1cccnc1; pH 7.4, 22 °C): 0.114 µM

protein (Micromonospora echinospora, UniProt Q8KND2)
Km (C[S+](CC[C@H](N)C(=O)O)C[C@H]1O[C@@H](n2cnc3c(N)ncnc32)[C@H](O)[C@@H]1O; pH 8, 35 °C): 350 µM

dmhA S133T (Campylobacter jejuni)
Km (Nc1nc2c(ncn2[C@@H]2O[C@H](COP(=O)(O)OP(=O)(O)O[C@H]3O[C@H]([C@H](O)CO)[C@@H](O)[C@H](O)[C@@H]3O)[C@@H](O)[C@H]2O)c(=O)[nH]1; pH 7.5, 30 °C): 50 µM

B1 (enzyme)
Km (CCCCCCCCCCC[C@@H](O)CC(=O)N[C@H]1[C@H](OC[C@H]2O[C@H](OP(=O)(O)O)[C@H](NC(=O)C[C@H](O)CCCCCCCCCCC)[C@@H](OC(=O)C[C@H](O)CCCCCCCCCCC)[C@@H]2O)O[C@H](CO)[C@@H](O)[C@@H]1OC(=O)C[C@H](O)CCCCCCCCCCC; pH 8.5, 30 °C, apparent): 7 µM

dmhA Y158F (Campylobacter jejuni)
Km (Nc1nc2c(ncn2[C@@H]2O[C@H](COP(=O)(O)OP(=O)(O)O[C@H]3O[C@H]([C@H](O)CO)[C@@H](O)[C@H](O)[C@@H]3O)[C@@H](O)[C@H]2O)c(=O)[nH]1; pH 7.5, 30 °C): 210 µM

hdhb E18D/G39D/R40A/R41A/T17A (Clostridium sardiniense)
Km (NC(=O)c1ccc[n+]([C@@H]2O[C@H](COP(=O)(O)OP(=O)(O)OC[C@H]3O[C@@H](n4cnc5c(N)ncnc54)[C@H](O)[C@@H]3O)[C@@H](O)[C@H]2O)c1; pH 8, 25 °C, cofactor varied): 4640 µM

Repeated from above:
dmhA S133T (Campylobacter jejuni)
Km (Nc1nc2c(ncn2[C@@H]2O[C@H](COP(=O)(O)OP(=O)(O)O[C@H]3O[C@H]([C@H](O)CO)[C@@H](O)[C@H](O)[C@@H]3O)[C@@H](O)[C@H]2O)c(=O)[nH]1; pH 7.5, 30 °C): 50 µM
